{"data": "Published values gathered from unrelated publications", "note": "Parts stem from different laboratories: compare values within a part only. Substitutions count along the parent as printed."}
{"data": "Sample 1", "target": "CCNA1, cyclin fold, Cln2 fusion (human)", "technique": "yeast growth competition, sequencing", "matrix": "yeast", "setting": "weak parent motif", "relative to": "not given", "reading": "higher = stronger binding", "starting sequence": "PKN2 docking peptide (human); VSAVQKLDFSDTM"}
{"Variant": "TSAVQKLDFSDTM [V1T]", "normalised enrichment score": 0.112}
{"Variant": "VSAVQKLDFSDLM [T12L]", "normalised enrichment score": 0.297}
{"Variant": "VHAVQKLDFSDTM [S2H]", "normalised enrichment score": 0.134}
{"data": "Sample 2", "target": "Prothrombin, mature alpha-thrombin (F2, Homo sapiens, UniProt P00734)", "technique": "aptamer microarray, sandwich", "form": "DNA with 2'F-ANA", "matrix": "in vitro", "concentration": "200 nM", "setting": "whole 15-mer aptamer, many near background", "added": "Cy3 exosite-II aptamer, 400 nM", "reading": "higher = stronger binding", "oligonucleotide": "GGTTGGTGTGGTTGG"}
{"Modification": "2'F-ANA at 2 3 5 6 8 9 10 15", "mean fluorescence intensity": "52.8 a.u."}
{"Modification": "2'F-ANA at 1 3 4 5 6 7 8 13 14", "mean fluorescence intensity": "47.2 a.u."}
{"Modification": "2'F-ANA at 1 4 5 7 9 10 11 13 14 15", "mean fluorescence intensity": "50.6 a.u."}
{"Modification": "2'F-ANA at 6 11 12 13 14 15", "mean fluorescence intensity": "202 a.u."}
{"Modification": "2'F-ANA at 2 3 4 7 8 9 10 12 14", "mean fluorescence intensity": "184 a.u."}
{"data": "Sample 3", "target": "Interferon regulatory factor 5, full length, phosphomimetic (IRF5, Homo sapiens, UniProt Q13568-2, residues 1-514, S451D/S453D/S456D/S462D)", "technique": "protein-binding microarray", "form": "double-stranded DNA, one strand shown", "matrix": "in vitro", "concentration": "940 nM top", "setting": "60-bp whole probe", "added": "salmon DNA 0.4 mg/ml", "relative to": "random background probes", "reading": "higher = stronger binding"}
{"Oligonucleotide": "GCCTAGCACTTTGGACTGGACTATCGGTTAGTGCTAGTCTTGATTCGCTTGACGCTGCTG", "fitted relative affinity [z-score]": -0.134}
{"Oligonucleotide": "GCCTAGCACTCAAATTTTGCTTCTAGACTGTGCTAGGTCTTGATTCGCTTGACGCTGCTG", "fitted relative affinity [z-score]": -0.0574}
{"Oligonucleotide": "GCCTAGCACGACGATTTCGGGTTACGAGACGTGCTAGTCTTGATTCGCTTGACGCTGCTG", "fitted relative affinity [z-score]": 1.06}
{"Oligonucleotide": "GCCTAGCACGACGGTTACCTTATCCTGACGTGCTAGGTCTTGATTCGCTTGACGCTGCTG", "fitted relative affinity [z-score]": -0.457}
{"data": "Other studies, line by line"}
{"Molecule": "PhoQ, residues 284 288 289 292 302 303 NLMGRA", "target": "PhoP, residues 12 14 15 18 19 LHTVM (Escherichia coli, UniProt P23836)", "assay": "Sort-seq, measured: YFP reporter", "test system": "E. coli", "setting": "PhoQ-PhoP variant library, added: 10 µM Mg2+", "how to read": "relative to: high Mg2+ state, higher = stronger signaling", "quantity": "fold induction", "value": 13.2}
{"note": "Repeated from above (sample 2):"}
{"Modification": "2'F-ANA at 6 11 12 13 14 15", "mean fluorescence intensity": "202 a.u."}
{"Modification": "2'F-ANA at 1 4 5 7 9 10 11 13 14 15", "mean fluorescence intensity": "50.6 a.u."}
